Experimental data from different studies.
Parts stem from different laboratories: compare values within a part only. Several values in a cell are separate wells, animals, samples, runs or records.
Chain of UniProt O15111 (whole entry, looked up): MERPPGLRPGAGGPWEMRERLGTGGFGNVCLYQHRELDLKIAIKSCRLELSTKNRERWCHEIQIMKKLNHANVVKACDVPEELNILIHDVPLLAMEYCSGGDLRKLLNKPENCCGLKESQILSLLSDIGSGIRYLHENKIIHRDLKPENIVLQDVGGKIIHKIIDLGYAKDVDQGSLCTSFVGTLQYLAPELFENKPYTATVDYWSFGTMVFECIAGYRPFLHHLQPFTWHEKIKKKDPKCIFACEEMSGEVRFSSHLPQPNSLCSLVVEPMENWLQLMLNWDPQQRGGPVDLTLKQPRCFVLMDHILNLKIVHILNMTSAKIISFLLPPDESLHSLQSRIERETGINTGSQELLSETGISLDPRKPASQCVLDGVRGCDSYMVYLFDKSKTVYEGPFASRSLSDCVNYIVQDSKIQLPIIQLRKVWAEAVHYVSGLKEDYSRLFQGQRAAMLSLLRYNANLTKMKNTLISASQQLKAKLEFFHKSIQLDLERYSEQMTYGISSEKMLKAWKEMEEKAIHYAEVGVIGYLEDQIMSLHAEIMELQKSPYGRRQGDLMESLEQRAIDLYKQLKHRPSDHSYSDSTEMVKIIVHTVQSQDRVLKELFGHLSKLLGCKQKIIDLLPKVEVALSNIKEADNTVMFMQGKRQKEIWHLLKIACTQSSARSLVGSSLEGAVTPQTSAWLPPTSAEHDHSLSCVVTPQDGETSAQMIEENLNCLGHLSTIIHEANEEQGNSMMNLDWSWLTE
Chain of UniProt Q9H0K1 (whole entry, looked up): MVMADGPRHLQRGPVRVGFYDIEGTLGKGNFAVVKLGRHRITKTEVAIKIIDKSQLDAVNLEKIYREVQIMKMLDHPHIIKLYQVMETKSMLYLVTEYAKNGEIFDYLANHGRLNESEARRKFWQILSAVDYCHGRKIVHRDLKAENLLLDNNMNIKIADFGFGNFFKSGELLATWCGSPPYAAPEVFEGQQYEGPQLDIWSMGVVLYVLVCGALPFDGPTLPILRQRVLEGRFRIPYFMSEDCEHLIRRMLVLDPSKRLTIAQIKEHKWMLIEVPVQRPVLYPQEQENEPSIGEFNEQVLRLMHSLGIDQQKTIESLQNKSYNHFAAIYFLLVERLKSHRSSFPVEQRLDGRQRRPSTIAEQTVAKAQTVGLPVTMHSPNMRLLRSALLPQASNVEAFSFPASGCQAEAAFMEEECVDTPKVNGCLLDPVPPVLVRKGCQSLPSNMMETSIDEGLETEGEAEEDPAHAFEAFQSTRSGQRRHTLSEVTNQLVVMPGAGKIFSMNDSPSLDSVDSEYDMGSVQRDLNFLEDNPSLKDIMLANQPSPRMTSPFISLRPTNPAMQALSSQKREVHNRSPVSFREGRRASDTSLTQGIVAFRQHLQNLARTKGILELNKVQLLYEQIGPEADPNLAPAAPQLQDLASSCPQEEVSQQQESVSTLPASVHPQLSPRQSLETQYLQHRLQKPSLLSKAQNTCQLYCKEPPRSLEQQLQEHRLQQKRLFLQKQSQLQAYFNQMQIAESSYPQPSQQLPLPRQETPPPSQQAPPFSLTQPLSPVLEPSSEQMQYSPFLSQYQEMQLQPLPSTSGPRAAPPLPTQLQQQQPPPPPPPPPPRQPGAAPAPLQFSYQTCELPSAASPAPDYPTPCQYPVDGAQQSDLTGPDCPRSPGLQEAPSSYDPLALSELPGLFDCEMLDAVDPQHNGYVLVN
Chain of UniProt P45985 (whole entry, looked up): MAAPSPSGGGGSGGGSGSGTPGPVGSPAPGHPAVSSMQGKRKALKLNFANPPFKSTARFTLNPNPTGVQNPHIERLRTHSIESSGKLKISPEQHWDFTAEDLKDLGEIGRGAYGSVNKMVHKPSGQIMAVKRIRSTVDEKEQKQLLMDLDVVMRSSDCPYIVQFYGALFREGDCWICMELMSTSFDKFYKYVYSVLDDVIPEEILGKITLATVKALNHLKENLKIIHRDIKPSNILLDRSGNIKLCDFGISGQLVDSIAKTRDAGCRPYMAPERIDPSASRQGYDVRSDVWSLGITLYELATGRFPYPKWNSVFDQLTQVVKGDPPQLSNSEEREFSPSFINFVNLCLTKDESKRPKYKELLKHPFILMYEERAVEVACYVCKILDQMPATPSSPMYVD

Study 1 — read-out: enzyme activity; action: inhibitor; concentration: 0.5 µM; reference: control; endpoint: remaining activity
Target: Casein kinase I isoform gamma-3 (CSNK1G3, Homo sapiens, UniProt Q9Y6M4)
Chain of UniProt Q9Y6M4 (whole entry, looked up): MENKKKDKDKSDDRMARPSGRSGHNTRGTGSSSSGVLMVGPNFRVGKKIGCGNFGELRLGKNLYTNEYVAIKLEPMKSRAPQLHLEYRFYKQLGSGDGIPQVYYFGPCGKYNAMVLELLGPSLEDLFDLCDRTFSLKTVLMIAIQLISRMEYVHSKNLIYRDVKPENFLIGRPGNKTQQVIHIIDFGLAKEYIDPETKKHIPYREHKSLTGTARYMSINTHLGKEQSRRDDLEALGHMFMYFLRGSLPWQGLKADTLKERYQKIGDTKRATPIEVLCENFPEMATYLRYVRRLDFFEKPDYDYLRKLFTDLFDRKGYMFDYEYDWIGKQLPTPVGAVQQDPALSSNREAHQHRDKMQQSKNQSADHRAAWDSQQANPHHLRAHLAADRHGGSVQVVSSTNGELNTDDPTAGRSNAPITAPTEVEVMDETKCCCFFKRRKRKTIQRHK
SMILES = COc1ccc(C(=O)Nc2sc3c(c2C(N)=O)CCCC3)cc1OC; result = 91.7%
SMILES = O=C1NC(=O)C(c2cn(CCCn3ccnc3)c3ccccc23)=C1Nc1ccccc1; result = 110%
SMILES = Nc1[nH]nc2nc3ccccc3nc12; result = 95.6%
SMILES = O=C(CCCc1ccc(-c2ccccc2F)cc1)Nc1ccc(O)cc1; result = 104%
SMILES = OCC(O)CCON=C1C(c2c(O)[nH]c3ccccc23)=Nc2ccccc21 (stereo not shown); result = 90.7%
SMILES = Cc1cccc(-c2[nH]c(C(C)(C)C)nc2-c2ccc3c(c2)OCO3)n1; result = 102%
SMILES = Cc1ccc(Nc2nccc(N(C)c3ccc4c(C)n(C)nc4c3)n2)cc1S(N)(=O)=O; result = 97.1%
SMILES = CO[C@H]1C[C@@H]2CC[C@@H](C)[C@@](O)(O2)C(=O)C(=O)N2CCCC[C@H]2C(=O)O[C@H]([C@H](C)C[C@@H]2CC[C@@H](O)[C@H](OC)C2)CC(=O)[C@H](C)/C=C(\C)[C@@H](O)[C@@H](OC)C(=O)[C@H](C)C[C@H](C)/C=C/C=C/C=C/1C; result = 108%
SMILES = Cn1sc(=O)n(Cc2ccccc2)c1=O; result = 114%
SMILES = COc1cc2ncnc(Nc3ccc(Oc4ccccc4)cc3)c2cc1OC; result = 99.4%
SMILES = CNC(=O)c1cc(Oc2ccc(NC(=O)Nc3ccc(Cl)c(C(F)(F)F)c3)cc2)ccn1; result = 99.8%
SMILES = O=S(=O)(c1cccc2cnccc12)N1CCCNCC1; result = 85%
SMILES = COc1ccc(OC)c2c(=S)c3ccccc3[nH]c12; result = 86.2%

Study 2 — read-out: enzyme activity; action: inhibitor; concentration: 77 µM; reference: untreated; endpoint: remaining activity
Target: DNA polymerase theta, ATPase domain (POLQ, Homo sapiens, UniProt O75417)
Chain of UniProt O75417 (whole entry, unmodified, looked up): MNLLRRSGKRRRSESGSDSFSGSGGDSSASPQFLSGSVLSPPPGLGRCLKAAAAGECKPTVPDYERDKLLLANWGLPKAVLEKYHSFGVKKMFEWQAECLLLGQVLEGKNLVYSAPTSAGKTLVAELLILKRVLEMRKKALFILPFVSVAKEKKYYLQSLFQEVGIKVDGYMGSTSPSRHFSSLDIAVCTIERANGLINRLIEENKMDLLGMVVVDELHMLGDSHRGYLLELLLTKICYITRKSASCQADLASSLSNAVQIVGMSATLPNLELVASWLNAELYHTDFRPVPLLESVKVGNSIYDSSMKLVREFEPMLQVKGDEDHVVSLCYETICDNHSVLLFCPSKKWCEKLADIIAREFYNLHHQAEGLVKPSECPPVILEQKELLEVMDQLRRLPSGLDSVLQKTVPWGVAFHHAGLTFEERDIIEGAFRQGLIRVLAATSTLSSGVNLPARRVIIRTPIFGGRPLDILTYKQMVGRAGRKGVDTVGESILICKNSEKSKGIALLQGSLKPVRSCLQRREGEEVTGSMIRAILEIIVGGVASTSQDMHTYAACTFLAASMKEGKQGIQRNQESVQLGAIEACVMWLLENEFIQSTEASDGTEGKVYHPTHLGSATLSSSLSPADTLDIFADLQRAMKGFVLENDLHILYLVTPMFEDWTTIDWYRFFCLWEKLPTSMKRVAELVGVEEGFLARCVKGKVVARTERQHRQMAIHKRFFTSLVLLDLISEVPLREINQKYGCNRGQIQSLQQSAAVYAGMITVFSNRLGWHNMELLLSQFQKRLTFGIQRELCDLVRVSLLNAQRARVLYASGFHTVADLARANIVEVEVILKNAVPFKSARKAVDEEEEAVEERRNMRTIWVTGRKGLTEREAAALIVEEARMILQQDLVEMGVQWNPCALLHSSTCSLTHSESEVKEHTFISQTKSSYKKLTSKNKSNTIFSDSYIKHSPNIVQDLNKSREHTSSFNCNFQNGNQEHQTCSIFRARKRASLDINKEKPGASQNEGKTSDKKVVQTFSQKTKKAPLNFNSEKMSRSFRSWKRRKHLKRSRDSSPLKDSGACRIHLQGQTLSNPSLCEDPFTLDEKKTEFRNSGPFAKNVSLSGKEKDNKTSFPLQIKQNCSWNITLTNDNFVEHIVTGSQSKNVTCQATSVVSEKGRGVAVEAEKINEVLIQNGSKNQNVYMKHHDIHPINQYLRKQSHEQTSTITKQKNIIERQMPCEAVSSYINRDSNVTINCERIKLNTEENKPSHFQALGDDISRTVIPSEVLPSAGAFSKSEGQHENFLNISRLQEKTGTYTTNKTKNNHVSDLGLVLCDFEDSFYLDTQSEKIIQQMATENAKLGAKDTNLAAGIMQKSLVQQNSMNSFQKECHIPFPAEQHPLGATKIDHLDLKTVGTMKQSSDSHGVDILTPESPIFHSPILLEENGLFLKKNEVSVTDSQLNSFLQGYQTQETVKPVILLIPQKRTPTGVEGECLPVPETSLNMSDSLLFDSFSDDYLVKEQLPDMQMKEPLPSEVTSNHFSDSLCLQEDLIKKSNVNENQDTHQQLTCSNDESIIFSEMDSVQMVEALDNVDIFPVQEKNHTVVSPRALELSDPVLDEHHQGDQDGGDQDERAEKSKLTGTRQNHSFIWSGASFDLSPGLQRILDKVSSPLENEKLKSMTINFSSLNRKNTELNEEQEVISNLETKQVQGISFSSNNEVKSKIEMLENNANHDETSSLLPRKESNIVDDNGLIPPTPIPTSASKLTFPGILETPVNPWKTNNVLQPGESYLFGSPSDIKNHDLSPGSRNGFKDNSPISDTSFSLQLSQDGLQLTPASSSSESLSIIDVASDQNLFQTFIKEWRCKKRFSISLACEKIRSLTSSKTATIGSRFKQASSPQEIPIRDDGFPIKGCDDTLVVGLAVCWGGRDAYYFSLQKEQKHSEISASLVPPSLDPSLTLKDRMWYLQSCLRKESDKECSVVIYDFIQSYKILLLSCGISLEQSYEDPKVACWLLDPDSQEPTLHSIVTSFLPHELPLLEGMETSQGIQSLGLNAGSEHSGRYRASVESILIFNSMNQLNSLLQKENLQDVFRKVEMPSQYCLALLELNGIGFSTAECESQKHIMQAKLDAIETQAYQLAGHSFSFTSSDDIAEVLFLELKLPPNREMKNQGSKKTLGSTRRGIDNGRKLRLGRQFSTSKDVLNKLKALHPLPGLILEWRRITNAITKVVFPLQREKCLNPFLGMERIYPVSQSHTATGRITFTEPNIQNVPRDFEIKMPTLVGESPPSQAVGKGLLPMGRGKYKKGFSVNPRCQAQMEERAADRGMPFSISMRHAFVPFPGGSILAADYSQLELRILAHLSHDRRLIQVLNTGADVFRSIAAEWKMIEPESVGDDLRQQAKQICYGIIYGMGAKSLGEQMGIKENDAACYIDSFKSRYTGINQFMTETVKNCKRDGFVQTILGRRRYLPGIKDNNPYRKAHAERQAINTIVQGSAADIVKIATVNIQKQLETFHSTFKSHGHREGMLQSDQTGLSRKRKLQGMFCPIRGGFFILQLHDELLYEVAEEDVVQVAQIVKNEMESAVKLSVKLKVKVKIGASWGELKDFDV
Structure (SMILES) = NC(=O)c1ncn([C@@H]2O[C@H](CO)[C@@H](O)[C@H]2O)c1N; result = 91.5%
Structure (SMILES) = CC(C)(C)NC(=O)[C@H]1CC[C@H]2[C@@H]3CC[C@H]4NC(=O)C=C[C@]4(C)[C@H]3CC[C@]12C; result = 96.6% and 102%
Structure (SMILES) = CC(C(=O)O)c1ccc(-c2ccccc2)c(F)c1 (stereo not shown); result = 93% and 96.5%
Structure (SMILES) = CN(CC(=O)N(Cc1ccc(C2CCCCC2)cc1)c1ccc(C(=O)O)cc1)S(=O)(=O)c1c(F)c(F)c(F)c(F)c1F; result = 73.6%
Structure (SMILES) = CN(NC(=O)CC(=O)NN(C)C(=S)c1ccccc1)C(=S)c1ccccc1; result = 92.4%
Structure (SMILES) = CC(C)(CO)C(O)C(=O)NCCCO (stereo not shown); result = 91.7%

Study 3 — concentration: 1 µM; endpoint: remaining binding
Compound: CN(C)CC#Cc1ccc(OCCCc2sc(N3CCc4cccc(C(=O)Nc5nc6ccccc6s5)c4C3)nc2C(=O)O)c(F)c1
target = Inhibitor of nuclear factor kappa-B kinase subunit alpha (CHUK, Homo sapiens, UniProt O15111); assay = cell-free assay, competition with immobilised ligand; result = 81%
target = MAP kinase-interacting serine/threonine-protein kinase 2 (MKNK2, Homo sapiens, UniProt Q9HBH9); assay = cell-free assay, competition with immobilised ligand; result = 75%
target = Non-receptor tyrosine-protein kinase TYK2, JH1 (TYK2, Homo sapiens, UniProt P29597); assay = cell-free assay, competition with immobilised ligand; result = 85%
target = Serine/threonine-protein kinase MRCK beta (CDC42BPB, Homo sapiens, UniProt Q9Y5S2); assay = cell-free assay, competition with immobilised ligand; result = 87%
target = Ribosomal protein S6 kinase alpha-2, N-terminal kinase domain (RPS6KA2, Homo sapiens, UniProt Q15349); assay = cell-free assay, competition with immobilised ligand; result = 100%
target = Dual specificity mitogen-activated protein kinase kinase 4 (MAP2K4, Homo sapiens, UniProt P45985); assay = cell-free assay, competition with immobilised ligand; result = 100%
target = Mitogen-activated protein kinase kinase kinase 4 (MAP3K4, Homo sapiens, UniProt Q9Y6R4); assay = cell-free assay, competition with immobilised ligand; result = 100%
target = BMP-2-inducible protein kinase (BMP2K, Homo sapiens, UniProt Q9NSY1); assay = cell-free assay, competition with immobilised ligand; result = 97%
target = Serine/threonine-protein kinase SIK2 (SIK2, Homo sapiens, UniProt Q9H0K1); assay = cell-free assay, competition with immobilised ligand; result = 96%
target = Serine/threonine-protein kinase 32C (STK32C, Homo sapiens, UniProt Q86UX6); assay = cell-free assay, competition with immobilised ligand; result = 75%
target = Cyclin-dependent kinase 19 (CDK19, Homo sapiens, UniProt Q9BWU1); assay = competition binding; result = 95%

Study 4 — medium: plasma; route: oral; endpoint: plasma concentration, geometric mean
SMILES: COc1ccc(-c2c(Nc3ccccn3)[nH]c3c(C4=CCCCC4)c(-c4ccccc4)nn3c2=O)cc1
test system = human patients; conditions = 100 mg once daily, 6 h, cycle 1; result = 2910 ng/mL
assay = LC-MS/MS; test system = human; conditions = 200 mg twice daily, 0.5 h, single dose; result = 60.3 ng/mL
test system = cancer patients; conditions = 200 mg, 1 h post-dose, single dose; result = 236 ng/mL
test system = cancer patients; conditions = 150 mg, 8 h post-dose, single dose; result = 1120 ng/mL
assay = LC-MS/MS; test system = human; conditions = 200 mg twice daily, 1 h, single dose; result = 384 ng/mL
test system = cancer patients; conditions = 50 mg, 1 h post-dose, single dose; result = 82.2 ng/mL
test system = human patients; conditions = 150 mg once daily, 8 h, cycle 1; result = 4190 ng/mL

A few entries again (study 3):
target = BMP-2-inducible protein kinase (BMP2K, Homo sapiens, UniProt Q9NSY1); assay = cell-free assay, competition with immobilised ligand; result = 97%
target = Serine/threonine-protein kinase SIK2 (SIK2, Homo sapiens, UniProt Q9H0K1); assay = cell-free assay, competition with immobilised ligand; result = 96%
target = Serine/threonine-protein kinase 32C (STK32C, Homo sapiens, UniProt Q86UX6); assay = cell-free assay, competition with immobilised ligand; result = 75%
